Experimental data collected from several papers.
Numbered parts are unrelated; each lists some results of a single study. Substitutions count along the parent as printed.

Set 1
Target: UBE2B UBC core domain (UniProt P63146)
UniProt P63146, sequence (whole entry, looked up): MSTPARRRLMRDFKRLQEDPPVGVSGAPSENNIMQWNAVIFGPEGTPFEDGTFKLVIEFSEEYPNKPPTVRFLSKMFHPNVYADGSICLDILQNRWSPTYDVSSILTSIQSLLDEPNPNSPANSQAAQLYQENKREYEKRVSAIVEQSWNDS
Technique: yeast two-hybrid
Sample: yeast
Notes: mostly zero background
Relative to: not given
Reading: higher = stronger interaction
B1: MARCHF1 RING domain (UniProt Q8TCQ1); chain TAPRSQSRLSVCPSTQDICRICHCEGDEESPLITPCRCTGTLRFVHQSCLHQWIKSSDTRCCELCKYDFIMETKLKPLRKWE
B2: NFX1 RING domain (UniProt Q12986); chain IEQLTTEKYECMVCCELVRVTAPVWSCQSCYHVFHLNCIKKWARSPASQADGQSGWRCPACQNVSAHVPNTY
B3: TRIM41 RING domain (UniProt Q8WV44); chain PVQTLQEEAVCAICLDYFTDPVSIGCGHNFCRVCVTQLWGGEDEEDRDELDREEEEEDGEEE
B4: HLTF RING domain (UniProt Q14527); chain LILSSGSDEECAICLDSLTVPVITHCAHVFCKPCICQVIQNEQPHAKCPLCRNDIHEDNLLE
B5: TRIM11 RING domain (UniProt Q96F44); chain LSTNLQEEATCAICLDYFTDPVMTDCGHNFCRECIRRCWGQPEGPYACPECRELSPQRNLRP
B6: ZNRF4 RING domain (UniProt Q8WWF5); chain VRTFTWHNDLCAICLDEYEEGDQLKILPCSHTYHCKCIDPWFSQAPRRSCPVCKQSVAATEDSF
B7: ZMYND11 RING domain (UniProt Q15326); chain DEIDWETENHDWYCFECHLPGEVLICDLCFRVYHSKCLSDEFRLRDSSSPWQCPVCRSIKKKNTNKQEM
B8: MKRN3 RING domain (UniProt Q13064); chain FAVQRGMDKVCGICMEVVYEKANPNDRRFGILSNCNHSFCIRCIRRWRSARQFENRIVKSCPQCRVTSELVIPSE
B9: RNF103 RING domain (UniProt O00237); chain WPADMLHCTECVVCLENFENGCLLMGLPCGHVFHQNCIVMWLAGGRHCCPVCRWPSYKKKQPY
| Sequence | lacZ reporter activity |
| --- | --- |
| B1 (MARCHF1 RING domain) | 0 |
| B2 (NFX1 RING domain) | 0 |
| B3 (TRIM41 RING domain) | 0 |
| EIKEYKARLTCPCCNTRKKDAVLTKCFHVFCFECVRGRYEARQRKCPKCNAAFGAHDFHR (RNF40 RING domain (UniProt O75150)) | 0 |
| B4 (HLTF RING domain) | 0 |
| B5 (TRIM11 RING domain) | 0 |
| B6 (ZNRF4 RING domain) | 0 |
| DDVLTKDAGECVICLEELLQGDTIARLPCLCIYHKSCIDSWFEVNRSCPEHPAD (ZNRF1 RING domain (UniProt Q8ND25)) | 0 |
| ASEEEFQFLRCQQCQAEAKCPKLLPCLHTLCSGCLEASGMQCPICQAPWPLGADTP (PML RING domain (UniProt P29590)) | 0 |
| B7 (ZMYND11 RING domain) | 0 |
| B8 (MKRN3 RING domain) | 0 |
| B9 (RNF103 RING domain) | 0 |

Set 2
Target: CCND3, cyclin fold, Cln2 fusion (human)
Technique: yeast growth competition, sequencing
Sample: yeast
Notes: weak parent motif
Relative to: not given
Reading: higher = stronger binding
Starting sequence: DNAH7 docking peptide (human); HELFQRLDFDNDG
| Variant | normalised enrichment score |
| --- | --- |
| HELFARLDFDNDG [Q5A] | -0.0262 |
| HELFQRLDFDNDA [G13A] | -0.33 |
| HEAFQRLDFDNDG [L3A] | -0.202 |
| HELFQALDFDNDG [R6A] | -0.311 |
| AELFQRLDFDNDG [H1A] | -0.175 |
| HELFQRLDFANDG [D10A] | -0.389 |

Set 3
Target: MAFF, bZIP domain (human)
Technique: DHFR protein complementation
Sample: yeast
Notes: single substitutions, most at no-binding floor
Relative to: wild-type JUN-FOS pair
Reading: higher = stronger binding
Starting sequence: JUN, bZIP domain (human); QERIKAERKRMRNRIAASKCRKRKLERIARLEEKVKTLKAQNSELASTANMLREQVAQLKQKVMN; partner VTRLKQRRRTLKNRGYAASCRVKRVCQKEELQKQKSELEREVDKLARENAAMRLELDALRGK
| Variant | binding fitness [natural log] |
| --- | --- |
| N42I | -1.31 |
| E54G | -1.46 |
| L31C | -1.43 |
| I28P | -1.43 |
| R30T | -1.53 |
| A40R | -1.43 |
| T37W | -1.29 |
| A46R | -1.37 |
| S47M | -1.35 |
| M51A | -1.39 |
| V56W | -1.48 |
| L38E | -1.32 |
| L52P | -1.49 |
| S47T | -1.3 |
| K34A | -1.29 |
| A29R | -1.33 |
| L31A | -1.43 |
| V35Y | -1.32 |
| K39F | -1.48 |
| L52I | -1.31 |
| N42K | -0.477 |
| E44H | -1.37 |

Set 4
Target: ABI1, truncated, D143A, DHFR fusion (Arabidopsis thaliana)
Technique: DHFR PCA, deep sequencing
Sample: yeast
Notes: methotrexate growth selection, single substitutions
Added: (+)-ABA 58 µM
Relative to: wild-type fitted maximum
Reading: higher = stronger binding
Starting sequence: PYL1, truncated, DHFR fusion (Arabidopsis thaliana); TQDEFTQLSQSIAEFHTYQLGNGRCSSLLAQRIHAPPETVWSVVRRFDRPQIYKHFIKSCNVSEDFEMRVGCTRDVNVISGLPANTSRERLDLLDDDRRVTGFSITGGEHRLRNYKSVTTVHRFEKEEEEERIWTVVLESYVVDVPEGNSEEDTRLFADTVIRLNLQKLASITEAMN
| Variant | relative binding score |
| --- | --- |
| H55W | 77.7% |
| R49D | 45.6% |
| V70P | 88.9% |
| R99V | -2% |
| I79Y | 89.7% |
| I12E | 5.07% |
| V121A | 13.8% |
| D96G | 21.3% |
| G81Y | 19.1% |
| T39L | 91.4% |
| V136R | 8.46% |
| S171Y | 75.4% |
| S80Y | 29.7% |
| A30P | 37.9% |

Set 5
Target: RNA binding protein fox-1 homolog 2, RRM domain, GST-SBP tag (RBFOX2, Homo sapiens, UniProt O43251-10, residues 100-194)
Technique: RNA Bind-n-Seq
Form: RNA
Sample: in vitro
Concentration: 365 nM
Notes: natural RNA segment, single round, ends assumed
Relative to: no-protein control
Reading: higher = stronger binding
Constant ends, left off below: GGGAGUUCUACAGUCCGACGAUC … UGGAAUUCUCGGGUGCCAA
Residues (chain): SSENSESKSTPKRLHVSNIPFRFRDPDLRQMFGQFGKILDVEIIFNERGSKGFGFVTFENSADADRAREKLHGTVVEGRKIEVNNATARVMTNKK
| Strand | RBNS enrichment (R) |
| --- | --- |
| UCUUCAUUAGAGUAAACAGUGGGACUUGGGAGGAUUAGUCUGGUGUCUAUUCUGGGCUAGAGAGAUCAUUUGACGAAAAAAAACUUACACUAUUUGAUGUACAGAAUAGA | 0.547 |
| UACGAGAUCUGUCUCUGCUGUUUAACUUCAUUGGAUUAAUCAGCUGGUUUCAACUCUACUGCGAAACAAAAAUAGCUCCUUAAAAGUACUGUUCUCCUUCAGUGGCAUGU | 0.591 |
| CCGUCUUCCCUCGGCUCUUGUUGGUGUGUGCAUGUGCUGCGUGCACACCGGGUUGUAUGGCGUCAGCAGGUGUGAGCUGUCCCUUGCUUCUCUUGUCACACAGUGCCCCU | 0.4 |
| UAAAACACUUUCAGCCACCCAGAUUAAUUAAAGUGGAGCAGUGGAGCCCCUGGCUGGGAGAUGGCCUCCAGAGGAGCAGCUGCAGGGCAUGUUCUGGGCUUAGCGACAGA | 1.57 |
| UGUGUGUCUCCGCCAGAGUCACAGCAGUGCCGAGGUGUCCGCGGCAGACCACACAGACCGUCUGAAAUGCGCCCGCCUGGCGGACAGCUCCCUUCUGAAGCAGAGAAGCC | 0.523 |
| UGCCUAGCUUUUGCAACUCUUUAAGCUUACUGUGAUCACGUGCCCUCUCAGUAGGGGGCUUUUAGAGCAGUUGAAAUCUGCAGAACUGAACCUCUGAGGGCCAAAAUAGG | 0.603 |
| CAGGGAUACGCCCAACACCAUGGCCUGCAACCCCAGGGUCAAGGGUGAAGGAAAGCAAGCUCACCGCCUGAACACGGAGAUUGUCUUUCUGCCACAGAACAGCAGCAGAC | 0.302 |
| GUAGUGGCUGUGCUAUACCCAGCAUCAUGCUUAACAGCGUGUUGCCCUUCUGAGCCUGUUGUACUCACUGAUCUCUUUAAAAACAAAAAAUAGCUCUUGUAAAAGGUCAC | 0.538 |
| GGAAGUUUUGUUUACUAGGAGCCUGACUUCCCAGCUCACAAAGGGUGAAAUGAAAGCUGAAGUACAGACAGGAUCUUAGUAGGUAUUUUAGGUCCAGGGCCAUGAAGACU | 0.561 |
| GGACUACCUGAAACCCCUAACUGGGGCGACUGAGCCUGUAGUGUGGUCAGUUCAAAGUUGCAUUUGGGAUUCUAUGUCUUCCAAAUUGAACCGUCUGUAAUCAGUACAGC | 0.211 |
| GGGCCUUGUUUUGCAUGUUGAUGAAGAACUACACAAAGAAAACUAAUAUAGUUAAAAGUCAGCUUGCCUUCCCGUAGUAGAAGCAGGUUCUUGGAAGUUACAAUUUAAGG | 5.04 |
| UUCCACAGGCCAUAAGAUUUUCUUCUGAGAAGAAUUUGUGUUUAAUUUUUUGAUACCAACACUGAACAUUCAUCAGGGAACUUUCCUGAAGUUCAGCUCAAGACUACCCU | 0.576 |

For quick reference, copied from above (set 5):
| Strand | RBNS enrichment (R) |
| --- | --- |
| GUAGUGGCUGUGCUAUACCCAGCAUCAUGCUUAACAGCGUGUUGCCCUUCUGAGCCUGUUGUACUCACUGAUCUCUUUAAAAACAAAAAAUAGCUCUUGUAAAAGGUCAC | 0.538 |
| GGAAGUUUUGUUUACUAGGAGCCUGACUUCCCAGCUCACAAAGGGUGAAAUGAAAGCUGAAGUACAGACAGGAUCUUAGUAGGUAUUUUAGGUCCAGGGCCAUGAAGACU | 0.561 |
| GGACUACCUGAAACCCCUAACUGGGGCGACUGAGCCUGUAGUGUGGUCAGUUCAAAGUUGCAUUUGGGAUUCUAUGUCUUCCAAAUUGAACCGUCUGUAAUCAGUACAGC | 0.211 |
